# Results of several laboratories.
# Numbered parts are unrelated; each lists some results of a single study. Values joined by “and” are separate records of one study, mostly repeats; a detail may differ.
# Chain of UniProt P42336 (whole entry, unmodified, looked up): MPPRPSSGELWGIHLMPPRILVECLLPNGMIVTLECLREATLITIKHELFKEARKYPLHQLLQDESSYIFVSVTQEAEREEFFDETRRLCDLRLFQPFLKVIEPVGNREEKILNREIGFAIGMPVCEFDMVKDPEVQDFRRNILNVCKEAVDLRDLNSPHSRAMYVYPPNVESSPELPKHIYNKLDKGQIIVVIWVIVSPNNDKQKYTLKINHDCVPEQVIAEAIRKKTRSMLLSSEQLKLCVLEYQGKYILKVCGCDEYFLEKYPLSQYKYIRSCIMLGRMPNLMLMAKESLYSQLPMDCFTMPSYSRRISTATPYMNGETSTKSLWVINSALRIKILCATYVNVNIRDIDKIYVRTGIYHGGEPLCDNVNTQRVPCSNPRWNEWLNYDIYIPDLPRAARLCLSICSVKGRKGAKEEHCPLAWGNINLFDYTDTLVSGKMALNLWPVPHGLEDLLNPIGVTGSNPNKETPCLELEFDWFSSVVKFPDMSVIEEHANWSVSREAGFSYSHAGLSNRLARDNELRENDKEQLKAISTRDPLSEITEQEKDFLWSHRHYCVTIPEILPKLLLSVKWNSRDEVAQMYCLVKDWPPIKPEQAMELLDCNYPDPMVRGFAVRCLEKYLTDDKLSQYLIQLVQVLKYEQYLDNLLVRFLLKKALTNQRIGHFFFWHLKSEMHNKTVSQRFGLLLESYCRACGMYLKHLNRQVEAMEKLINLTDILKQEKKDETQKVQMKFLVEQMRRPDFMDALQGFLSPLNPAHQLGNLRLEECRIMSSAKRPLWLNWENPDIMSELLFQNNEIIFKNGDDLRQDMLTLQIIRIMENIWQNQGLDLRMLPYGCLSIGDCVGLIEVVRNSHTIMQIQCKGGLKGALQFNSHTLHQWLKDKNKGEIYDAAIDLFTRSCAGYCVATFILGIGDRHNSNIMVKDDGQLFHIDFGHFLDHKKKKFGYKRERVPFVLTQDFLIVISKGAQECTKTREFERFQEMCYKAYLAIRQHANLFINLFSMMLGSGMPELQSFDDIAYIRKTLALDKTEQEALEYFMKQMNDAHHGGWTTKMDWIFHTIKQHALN
# Chain of UniProt O75582 (whole entry, looked up): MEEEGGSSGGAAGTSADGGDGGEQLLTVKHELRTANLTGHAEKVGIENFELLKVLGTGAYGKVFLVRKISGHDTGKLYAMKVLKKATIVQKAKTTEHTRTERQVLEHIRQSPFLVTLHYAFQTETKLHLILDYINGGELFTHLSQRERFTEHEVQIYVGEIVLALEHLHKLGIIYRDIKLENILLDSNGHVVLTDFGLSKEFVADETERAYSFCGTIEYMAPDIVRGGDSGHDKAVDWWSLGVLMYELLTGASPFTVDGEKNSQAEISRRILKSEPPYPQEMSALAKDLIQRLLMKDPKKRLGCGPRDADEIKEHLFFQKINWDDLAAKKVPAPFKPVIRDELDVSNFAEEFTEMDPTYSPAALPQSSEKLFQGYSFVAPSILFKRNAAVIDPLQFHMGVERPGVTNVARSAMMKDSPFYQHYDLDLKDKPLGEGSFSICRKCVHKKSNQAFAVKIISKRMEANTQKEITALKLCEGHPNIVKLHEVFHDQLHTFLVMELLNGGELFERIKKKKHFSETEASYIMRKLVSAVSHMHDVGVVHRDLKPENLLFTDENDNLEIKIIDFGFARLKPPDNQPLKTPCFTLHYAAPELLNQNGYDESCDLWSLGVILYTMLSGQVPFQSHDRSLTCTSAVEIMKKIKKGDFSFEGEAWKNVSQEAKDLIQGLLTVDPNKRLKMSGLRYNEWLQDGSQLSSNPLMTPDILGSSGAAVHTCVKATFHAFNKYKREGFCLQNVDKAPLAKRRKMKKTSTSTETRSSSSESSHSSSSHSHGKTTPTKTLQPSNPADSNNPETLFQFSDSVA
# Chain of UniProt P35348 (whole entry, looked up): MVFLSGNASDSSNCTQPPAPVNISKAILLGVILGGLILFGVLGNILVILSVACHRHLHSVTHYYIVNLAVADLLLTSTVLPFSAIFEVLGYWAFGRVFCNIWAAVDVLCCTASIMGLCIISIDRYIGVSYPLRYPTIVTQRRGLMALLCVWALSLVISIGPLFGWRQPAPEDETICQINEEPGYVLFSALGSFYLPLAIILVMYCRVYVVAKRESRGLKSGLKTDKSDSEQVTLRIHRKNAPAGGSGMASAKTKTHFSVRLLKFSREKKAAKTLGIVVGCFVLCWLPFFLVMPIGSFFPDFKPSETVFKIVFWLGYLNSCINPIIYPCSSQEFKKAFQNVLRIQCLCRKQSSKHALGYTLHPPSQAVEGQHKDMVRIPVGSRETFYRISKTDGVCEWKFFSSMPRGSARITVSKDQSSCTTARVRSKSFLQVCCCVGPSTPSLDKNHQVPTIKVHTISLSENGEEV
# Chain of UniProt Q13639 (whole entry, looked up): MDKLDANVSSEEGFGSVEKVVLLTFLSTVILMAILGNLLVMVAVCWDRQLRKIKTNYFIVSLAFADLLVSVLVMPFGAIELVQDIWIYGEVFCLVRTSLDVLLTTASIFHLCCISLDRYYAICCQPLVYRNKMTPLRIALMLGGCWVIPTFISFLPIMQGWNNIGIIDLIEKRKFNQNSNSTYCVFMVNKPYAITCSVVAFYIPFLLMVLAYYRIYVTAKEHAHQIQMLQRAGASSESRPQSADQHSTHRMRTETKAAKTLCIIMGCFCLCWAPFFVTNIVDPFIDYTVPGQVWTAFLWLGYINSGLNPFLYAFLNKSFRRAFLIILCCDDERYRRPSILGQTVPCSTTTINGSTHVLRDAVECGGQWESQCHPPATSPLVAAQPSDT
# Chain of UniProt O43781 (whole entry, looked up): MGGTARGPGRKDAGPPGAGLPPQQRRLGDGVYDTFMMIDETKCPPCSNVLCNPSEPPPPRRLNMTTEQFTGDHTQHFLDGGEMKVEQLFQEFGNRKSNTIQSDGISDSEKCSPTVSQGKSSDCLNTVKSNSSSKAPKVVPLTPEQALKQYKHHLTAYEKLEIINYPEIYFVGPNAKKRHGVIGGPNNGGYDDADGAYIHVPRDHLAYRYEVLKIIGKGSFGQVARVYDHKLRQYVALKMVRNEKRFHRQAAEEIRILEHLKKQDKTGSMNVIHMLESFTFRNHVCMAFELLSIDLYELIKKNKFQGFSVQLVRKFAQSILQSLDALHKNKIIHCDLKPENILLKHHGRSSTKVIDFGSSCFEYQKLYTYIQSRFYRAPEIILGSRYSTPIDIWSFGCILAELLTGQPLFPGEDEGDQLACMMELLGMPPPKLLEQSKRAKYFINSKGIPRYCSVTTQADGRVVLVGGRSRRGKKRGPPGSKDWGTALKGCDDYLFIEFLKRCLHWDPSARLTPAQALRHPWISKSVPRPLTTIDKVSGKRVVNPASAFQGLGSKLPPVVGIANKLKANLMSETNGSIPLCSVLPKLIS
# Chain of UniProt P47872 (whole entry, looked up): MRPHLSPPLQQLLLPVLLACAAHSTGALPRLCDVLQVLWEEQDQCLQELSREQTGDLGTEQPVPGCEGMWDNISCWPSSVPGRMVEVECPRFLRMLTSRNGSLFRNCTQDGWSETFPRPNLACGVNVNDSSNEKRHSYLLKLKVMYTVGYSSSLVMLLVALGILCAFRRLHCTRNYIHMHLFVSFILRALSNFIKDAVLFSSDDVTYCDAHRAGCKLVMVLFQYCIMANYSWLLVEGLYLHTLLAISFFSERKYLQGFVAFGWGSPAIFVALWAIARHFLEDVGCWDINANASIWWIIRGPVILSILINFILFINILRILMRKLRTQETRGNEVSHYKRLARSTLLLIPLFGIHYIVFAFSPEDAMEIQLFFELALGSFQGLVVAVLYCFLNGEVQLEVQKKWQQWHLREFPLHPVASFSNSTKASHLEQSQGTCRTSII
# Chain of UniProt P51451 (whole entry, looked up): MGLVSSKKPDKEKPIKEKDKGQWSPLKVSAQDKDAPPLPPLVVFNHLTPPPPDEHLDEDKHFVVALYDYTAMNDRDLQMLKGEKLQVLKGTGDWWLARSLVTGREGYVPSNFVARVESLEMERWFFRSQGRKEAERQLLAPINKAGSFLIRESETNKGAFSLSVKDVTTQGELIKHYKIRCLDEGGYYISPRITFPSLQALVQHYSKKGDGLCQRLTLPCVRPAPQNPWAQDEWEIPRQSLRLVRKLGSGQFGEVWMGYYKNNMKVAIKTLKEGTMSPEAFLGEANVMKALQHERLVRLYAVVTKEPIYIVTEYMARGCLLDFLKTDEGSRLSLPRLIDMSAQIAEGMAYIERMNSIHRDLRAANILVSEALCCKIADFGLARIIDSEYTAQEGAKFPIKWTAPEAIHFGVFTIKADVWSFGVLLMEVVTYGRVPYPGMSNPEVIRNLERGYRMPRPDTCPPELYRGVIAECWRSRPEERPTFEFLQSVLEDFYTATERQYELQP

# Series 1
# Compound: CC(C)CN(C)c1nc(N)c(C(=O)N=C(N)N)nc1Cl
# Action: agonist
# Tested at: 10 µM
# Relative to: untreated
target,read-out,method,fold over basal
"ADRB1 (Homo sapiens, UniProt P08588)",β-arrestin recruitment,PRESTO-Tango,0.96
"CCR8 (Homo sapiens, UniProt P51685)",β-arrestin recruitment,PRESTO-Tango,0.66
"PTGER1 (Homo sapiens, UniProt P34995)",β-arrestin recruitment,PRESTO-Tango,1.26
"S1PR5 (Homo sapiens, UniProt Q9H228)",β-arrestin recruitment,PRESTO-Tango,0.68
"ADORA1 (Homo sapiens, UniProt P30542)",β-arrestin recruitment,PRESTO-Tango,0.94
"Secretin receptor (SCTR, Homo sapiens, UniProt P47872)",β-arrestin recruitment,PRESTO-Tango,1.08
"GPR55 (Homo sapiens, UniProt Q9Y2T6)",β-arrestin recruitment,PRESTO-Tango,1.67
"NPY5R (Homo sapiens, UniProt Q15761)",,PRESTO-Tango arrestin recruitment,7.03
"MCHR2 (Homo sapiens, UniProt Q969V1)",β-arrestin recruitment,PRESTO-Tango,0.94
"HTR4 (Homo sapiens, UniProt Q13639)",β-arrestin recruitment,PRESTO-Tango,0.71
"ADRA1A (Homo sapiens, UniProt P35348)",β-arrestin recruitment,PRESTO-Tango,0.94
"CCR10 (Homo sapiens, UniProt P46092)",β-arrestin recruitment,PRESTO-Tango,0.71

# Series 2
# SMILES: CO[C@@H](C)c1c(Nc2ccc([C@H](N(C)C(=O)C3CCS(=O)(=O)CC3)C(F)(F)F)cc2)cnc2cc(Cl)nn12
# Read-out: cell-free assay
# Method: competition with immobilised ligand
# Tested at: 1 µM
target,remaining binding [%]
"PIK3C2G (Homo sapiens, UniProt O75747)",88
"NUAK2 (Homo sapiens, UniProt Q9H093)",100
"CDK17 (Homo sapiens, UniProt Q00537)",75
"PIK3CA (Homo sapiens, UniProt P42336, M1043I)",100
"CSNK2A2 (Homo sapiens, UniProt P19784)",100
"Tyrosine-protein kinase JAK1, JH1 (JAK1, Homo sapiens, UniProt P23458)",91
"PIK3CA (Homo sapiens, UniProt P42336, I800L)",55
"MAPK11 (Homo sapiens, UniProt Q15759)",79
"MAP3K4 (Homo sapiens, UniProt Q9Y6R4)",89
"ULK2 (Homo sapiens, UniProt Q8IYT8)",96
"DAPK3 (Homo sapiens, UniProt O43293)",91
"SGK2 (Homo sapiens, UniProt Q9HBY8)",91
"STK39 (Homo sapiens, UniProt Q9UEW8)",50
"Myosin-IIIa (MYO3A, Homo sapiens, UniProt Q8NEV4)",100

# Series 3
# Target: Calcium/calmodulin-dependent protein kinase type II subunit alpha (CAMK2A, Homo sapiens, UniProt Q9UQM7)
# Chain of UniProt Q9UQM7 (whole entry, looked up): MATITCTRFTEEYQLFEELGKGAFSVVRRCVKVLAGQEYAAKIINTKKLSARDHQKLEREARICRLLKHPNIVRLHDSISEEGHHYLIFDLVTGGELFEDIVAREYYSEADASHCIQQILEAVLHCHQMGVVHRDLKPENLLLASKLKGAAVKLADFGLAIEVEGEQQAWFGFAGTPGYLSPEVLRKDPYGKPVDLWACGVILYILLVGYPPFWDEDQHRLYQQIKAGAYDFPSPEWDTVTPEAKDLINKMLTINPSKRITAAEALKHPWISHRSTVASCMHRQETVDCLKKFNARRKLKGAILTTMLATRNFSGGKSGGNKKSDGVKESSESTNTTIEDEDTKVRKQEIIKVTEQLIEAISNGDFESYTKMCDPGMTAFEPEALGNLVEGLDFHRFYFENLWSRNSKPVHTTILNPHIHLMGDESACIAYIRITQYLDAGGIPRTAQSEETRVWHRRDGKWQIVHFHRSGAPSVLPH
# Read-out: enzyme activity
# Action: inhibitor
# Tested at: 10 µM
SMILES,inhibition
COc1cc(-c2cc(=O)c3c(O)c(OC)c(O)cc3o2)ccc1O,11%
C[C@H]1[C@H](C)CC[C@]2(C)CC[C@]3(C)C(=CC(=O)[C@@H]4[C@@]5(C)CC[C@@H](O)[C@](C)(C(=O)O)[C@@H]5CC[C@]43C)[C@H]12,-19%
N[C@@H](Cc1cc(I)c(O)c(I)c1)C(=O)O,-17%
CC(=O)c1cc2c(CO)cc(O)cc2oc1=O,3%
C[C@H](C(=O)O)c1ccc(-c2ccccc2)c(F)c1,-3%
COc1cc2ccc(=O)oc2c(OC)c1O,-11%
Nc1nc(F)nc2c1ncn2[C@@H]1O[C@H](CO)[C@@H](O)[C@@H]1O,-1%
O=C1c2c(O)cccc2[C@H]([C@@H]2O[C@H](CO)[C@@H](O)[C@H](O)[C@H]2O)c2cc(CO)cc(O)c21,-27%
NCCCCN,-12%
COc1cc([C@H]2Oc3cc([C@H]4Oc5cc(O)cc(O)c5C(=O)[C@@H]4O)ccc3O[C@@H]2CO)ccc1O,0.31% and -0.07%
CCCCCCCCCCCCCCC(O)C(=O)O (centres unmarked),-22%
CC[C@@H](C)O,31%
COc1cc(NS(=O)(=O)c2ccc(N)cc2)ncn1,-6%
Oc1ccc2[nH]ccc2c1,-23%
O=C(O)C1CCCCN1 (centres unmarked),21%
C=CC(=O)N1CCC[C@@H](n2nc(-c3ccc(Oc4ccccc4)cc3)c3c(N)ncnc32)C1 (racemic),-0.04%

# Series 4
# Structure (SMILES): NC(=O)c1ccc(-c2nc(-c3ccc4c(c3)OCCO4)c(-c3ccccn3)[nH]2)cc1
# Read-out: enzyme activity
# Action: inhibitor
# Tested at: 0.5 µM
# Relative to: control
target,remaining activity [%]
"MAP4K4 (Homo sapiens, UniProt O95819)",78.6
"MAPKAPK3 (Homo sapiens, UniProt Q16644)",96.2
"TSSK2 (Homo sapiens, UniProt Q96PF2)",109
"HIPK2 (Homo sapiens, UniProt Q9H2X6)",89.8
"EPHB4 (Homo sapiens, UniProt P54760)",88
"Cyclin-dependent kinase 1, with cyclin B (CDK1, Homo sapiens, UniProt P06493)",83.9
"BLK (Homo sapiens, UniProt P51451)",97.6
"SRMS (Homo sapiens, UniProt Q9H3Y6)",89.2
"PDPK1 (Homo sapiens, UniProt O15530)",94.7
"RPS6KA5 (Homo sapiens, UniProt O75582)",97.4
"CAMK2B (Homo sapiens, UniProt Q13554)",103
"EPHA4 (Homo sapiens, UniProt P54764)",92.5
"RPS6KA6 (Homo sapiens, UniProt Q9UK32)",102
"Cyclin-dependent kinase 4, with cyclin D3 (CDK4, Homo sapiens, UniProt P11802)",94.1
"AXL (Homo sapiens, UniProt P30530)",95.1
"STK16 (Homo sapiens, UniProt O75716)",101
"Cyclin-dependent kinase 6, with cyclin D3 (CDK6, Homo sapiens, UniProt Q00534)",104
"DYRK3 (Homo sapiens, UniProt O43781)",99.4
"EPHB1 (Homo sapiens, UniProt P54762)",91
"STK17A (Homo sapiens, UniProt Q9UEE5)",98.2
"WNK3 (Homo sapiens, UniProt Q9BYP7)",101
"HIPK4 (Homo sapiens, UniProt Q8NE63)",103
"PHKG1 (Homo sapiens, UniProt Q16816)",87.2

# For quick reference, copied from above (series 4):
target,remaining activity [%]
"STK17A (Homo sapiens, UniProt Q9UEE5)",98.2
"RPS6KA5 (Homo sapiens, UniProt O75582)",97.4
"WNK3 (Homo sapiens, UniProt Q9BYP7)",101
"STK16 (Homo sapiens, UniProt O75716)",101
"CAMK2B (Homo sapiens, UniProt Q13554)",103
"MAPKAPK3 (Homo sapiens, UniProt Q16644)",96.2
"BLK (Homo sapiens, UniProt P51451)",97.6
"EPHB4 (Homo sapiens, UniProt P54760)",88
"AXL (Homo sapiens, UniProt P30530)",95.1
